{"data": "Measurements collected from several papers", "note": "A part holds a random share of what one study measured."}
{"data": "Sample 1", "target": "Prothrombin, mature alpha-thrombin (F2, Homo sapiens, UniProt P00734)", "method": "aptamer microarray, sandwich", "form": "DNA with 2'F-ANA", "matrix": "in vitro", "concentration": "200 nM", "setting": "whole 15-mer aptamer, many near background", "with": "Cy3 exosite-II aptamer, 400 nM", "direction": "higher = stronger binding", "strand": "GGTTGGTGTGGTTGG"}
{"Modification": "2'F-ANA at 1 5 8 9 10 11 12 14", "mean fluorescence intensity [a.u.]": 48.6}
{"Modification": "2'F-ANA at 1 2 3 4 7 13", "mean fluorescence intensity [a.u.]": 124}
{"Modification": "2'F-ANA at 7 8 9 10", "mean fluorescence intensity [a.u.]": 206}
{"Modification": "2'F-ANA at 2 4 5 6 7 8 9 11 12 14", "mean fluorescence intensity [a.u.]": 47}
{"Modification": "2'F-ANA at 1 7 8 11 12 13", "mean fluorescence intensity [a.u.]": 308}
{"Modification": "2'F-ANA at 1 2 9 11 12 13 15", "mean fluorescence intensity [a.u.]": 231}
{"Modification": "2'F-ANA at 4 5 6 15", "mean fluorescence intensity [a.u.]": 62.8}
{"Modification": "2'F-ANA at 2 6 7 9 10 11 13", "mean fluorescence intensity [a.u.]": 113}
{"Modification": "2'F-ANA at 1 2 5 6 10 11 13 15", "mean fluorescence intensity [a.u.]": 96.1}
{"Modification": "2'F-ANA at 1 2 3 4 6 7 8 12 14", "mean fluorescence intensity [a.u.]": 88}
{"Modification": "2'F-ANA at 1 8 10 11 12 13 14", "mean fluorescence intensity [a.u.]": 156}
{"Modification": "2'F-ANA at 2 5 6 8 9 11 12 14 15", "mean fluorescence intensity [a.u.]": 48.5}
{"Modification": "2'F-ANA at 1 2 4 5 6 9 15", "mean fluorescence intensity [a.u.]": 57.5}
{"Modification": "2'F-ANA at 3 5 8 10 11 12 13 15", "mean fluorescence intensity [a.u.]": 59.3}
{"Modification": "2'F-ANA at 1 3 4 5 8 10 11 12 15", "mean fluorescence intensity [a.u.]": 62.8}
{"Modification": "2'F-ANA at 2 3 4 5 9 11 12 14 15", "mean fluorescence intensity [a.u.]": 61.2}
{"Modification": "2'F-ANA at 1 4 5 7 11 15", "mean fluorescence intensity [a.u.]": 52.4}
{"Modification": "2'F-ANA at 1 2 3 5 9 11 13 14 15", "mean fluorescence intensity [a.u.]": 64.2}
{"Modification": "2'F-ANA at 1 2 4 8 10 12 14", "mean fluorescence intensity [a.u.]": 47.7}
{"Modification": "2'F-ANA at 4 5 7 8 12 14", "mean fluorescence intensity [a.u.]": 52.8}
{"Modification": "2'F-ANA at 1 3 6 7 8 10 12 14", "mean fluorescence intensity [a.u.]": 64.3}
{"data": "Sample 2", "target": "Protein C-ets-1, full length (ETS1, Homo sapiens, UniProt P14921, residues 1-441)", "method": "protein-binding microarray", "form": "hairpin DNA", "matrix": "in vitro", "concentration": "not given", "setting": "whole hairpin DNA, median over replicate spots", "reference": "not given", "direction": "higher = stronger binding", "chain of UniProt P14921 (whole entry, looked up)": "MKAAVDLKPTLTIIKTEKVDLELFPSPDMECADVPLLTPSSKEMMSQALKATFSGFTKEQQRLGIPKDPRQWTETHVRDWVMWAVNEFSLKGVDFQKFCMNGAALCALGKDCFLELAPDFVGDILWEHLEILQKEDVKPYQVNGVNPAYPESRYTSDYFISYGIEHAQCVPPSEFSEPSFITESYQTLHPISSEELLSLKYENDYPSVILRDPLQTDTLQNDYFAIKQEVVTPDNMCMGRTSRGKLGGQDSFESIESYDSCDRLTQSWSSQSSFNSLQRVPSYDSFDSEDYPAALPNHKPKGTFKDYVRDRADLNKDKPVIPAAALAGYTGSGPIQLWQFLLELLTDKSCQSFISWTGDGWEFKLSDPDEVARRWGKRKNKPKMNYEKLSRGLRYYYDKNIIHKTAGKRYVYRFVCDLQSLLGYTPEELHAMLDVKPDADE"}
{"Strand": "GAGGCCAGTCGGAAATTGCCTCCTGGCAATTTCCGACTGGCCTCACACTC", "median fluorescence": "2650 a.u."}
{"Strand": "GAGGCCAGTCGGAAGCGGCCTCCTGGCCGCTTCCGACTGGCCTCACACTC (5mC at 16)", "median fluorescence": "1470 a.u."}
{"Strand": "GAGGCCAGTCGGAAGTTGCCTCCTGGCAACTTCCGACTGGCCTCACACTC (5mC at 10 34)", "median fluorescence": "646 a.u."}
{"Strand": "GAGGCCACGCGGAAGTTGCCTCCTGGCAACTTCCGCGTGGCCTCACACTC (5mC at 8 36)", "median fluorescence": "3110 a.u."}
{"Strand": "GAGGCCAGCCCGAAGTTGCCTCCTGGCAACTTCGGGCTGGCCTCACACTC (5mC at 11)", "median fluorescence": "566 a.u."}
{"Strand": "GAGGCCAGCCGCGAGTTGCCTCCTGGCAACTCGCGGCTGGCCTCACACTC (5mC at 12 32)", "median fluorescence": "552 a.u."}
{"Strand": "GAGGCCAGCAGGAAGTTGCCTCCTGGCAACTTCCTGCTGGCCTCACACTC", "median fluorescence": "5520 a.u."}
{"Strand": "GAGGCCAGTCGGCAGTTGCCTCCTGGCAACTGCCGACTGGCCTCACACTC", "median fluorescence": "568 a.u."}
{"Strand": "GAGGCCGGTCGGAAGTTGCCTCCTGGCAACTTCCGACCGGCCTCACACTC", "median fluorescence": "3170 a.u."}
{"Strand": "GAGGCCAGTCGCAAGTTGCCTCCTGGCAACTTGCGACTGGCCTCACACTC (5mC at 12)", "median fluorescence": "524 a.u."}
{"Strand": "GAGGCCAACCGGAAGTTGCCTCCTGGCAACTTCCGGTTGGCCTCACACTC", "median fluorescence": "12600 a.u."}
{"Strand": "GAGGCCAGCCGGAAGCGGCCTCCTGGCCGCTTCCGGCTGGCCTCACACTC (5mC at 16 28)", "median fluorescence": "5660 a.u."}
{"Strand": "GAGGCCAGCCGGAAGGTGCCTCCTGGCACCTTCCGGCTGGCCTCACACTC", "median fluorescence": "3140 a.u."}
{"Strand": "GAGGCCAGCCCGAAGTTGCCTCCTGGCAACTTCGGGCTGGCCTCACACTC", "median fluorescence": "561 a.u."}
{"Strand": "GAGGCCAGCCGGAACGTGCCTCCTGGCACGTTCCGGCTGGCCTCACACTC", "median fluorescence": "920 a.u."}
{"Strand": "GAGGCCAGCCGGAAGCTGCCTCCTGGCAGCTTCCGGCTGGCCTCACACTC (5mC at 16)", "median fluorescence": "5630 a.u."}
{"Strand": "GAGGCCAGTCGGCAGTTGCCTCCTGGCAACTGCCGACTGGCCTCACACTC (5mC at 13)", "median fluorescence": "568 a.u."}
{"Strand": "GAGGCCAGTCGGGAGTTGCCTCCTGGCAACTCCCGACTGGCCTCACACTC (5mC at 32)", "median fluorescence": "530 a.u."}
{"Strand": "GAGGCCAGTCGGACGTTGCCTCCTGGCAACGTCCGACTGGCCTCACACTC", "median fluorescence": "738 a.u."}
{"Strand": "GAGGCCAGTCGGAAGTGGCCTCCTGGCCACTTCCGACTGGCCTCACACTC (5mC at 28)", "median fluorescence": "3700 a.u."}
{"Strand": "GAGGCCAGCCGGCGGTTGCCTCCTGGCAACCGCCGGCTGGCCTCACACTC (5mC at 13 31)", "median fluorescence": "549 a.u."}
{"Strand": "GAGGCCAGTCGCGAGTTGCCTCCTGGCAACTCGCGACTGGCCTCACACTC (5mC at 32)", "median fluorescence": "557 a.u."}
{"data": "Sample 3", "target": "Histone acetyltransferase KAT6A, winged helix 2, GST fusion (KAT6A, Homo sapiens, UniProt Q92794, residues 85-181)", "method": "protein binding microarray", "form": "double-stranded DNA, one strand shown", "matrix": "in vitro", "concentration": "not given", "setting": "8-mer, flanks averaged, mean of 2 arrays, mostly near background", "reference": "not given", "direction": "higher = stronger binding", "Target sequence (chain)": "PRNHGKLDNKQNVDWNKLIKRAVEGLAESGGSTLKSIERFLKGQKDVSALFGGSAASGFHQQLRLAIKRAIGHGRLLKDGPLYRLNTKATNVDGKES"}
{"Strand": "CATGATGC", "E-score": 0.0127}
{"Strand": "CACGGATA", "E-score": 0.00417}
{"Strand": "ATCTGCGA", "E-score": 0.0124}
{"Strand": "ACACAGTA", "E-score": -0.0973}
{"Strand": "CATACTAC", "E-score": -0.203}
{"Strand": "AATGACGA", "E-score": 0.0273}
{"Strand": "TAAAAGTA", "E-score": -0.0901}
{"Strand": "AGCTAAAA", "E-score": 0.0214}
{"Strand": "CCTGGACC", "E-score": 0.0553}
{"Strand": "AATCCCCG", "E-score": 0.0483}
{"Strand": "GCATAAGA", "E-score": -0.0741}
{"Strand": "AGCCCGAC", "E-score": 0.0964}
{"Strand": "GACATACC", "E-score": 0.0208}
{"Strand": "CGTCGGTA", "E-score": -0.0694}
{"Strand": "AACACCGG", "E-score": 0.219}
{"Strand": "AGAAAGGG", "E-score": -0.0421}
{"Strand": "GCGCGGTA", "E-score": 0.0687}
{"Strand": "ATGTACCG", "E-score": -0.234}
{"Strand": "AAATCTCA", "E-score": -0.0917}
{"Strand": "CCCACGCC", "E-score": 0.0194}
{"Strand": "AACAAACA", "E-score": 0.143}
{"Strand": "CCCGAATA", "E-score": 0.0903}
{"Strand": "AGTCCCGC", "E-score": 0.0574}
{"Strand": "TCAGTCAA", "E-score": -0.0879}
{"Strand": "AACATGAA", "E-score": -0.123}
{"data": "Sample 4", "target": "Interferon regulatory factor 3, full length, phosphomimetic (IRF3, Homo sapiens, UniProt Q14653, residues 1-427, S386D/S396D/S398D/S402D/T404D/S405D)", "method": "protein-binding microarray", "form": "double-stranded DNA, one strand shown", "matrix": "in vitro", "concentration": "2540 nM top", "setting": "60-bp whole probe", "with": "salmon DNA 0.4 mg/ml", "reference": "random background probes", "direction": "higher = stronger binding", "shared flanks, not repeated": "GCCTAGCAC … GTCTTGATTCGCTTGACGCTGCTG", "chain of UniProt Q14653 (whole entry, unmodified, looked up)": "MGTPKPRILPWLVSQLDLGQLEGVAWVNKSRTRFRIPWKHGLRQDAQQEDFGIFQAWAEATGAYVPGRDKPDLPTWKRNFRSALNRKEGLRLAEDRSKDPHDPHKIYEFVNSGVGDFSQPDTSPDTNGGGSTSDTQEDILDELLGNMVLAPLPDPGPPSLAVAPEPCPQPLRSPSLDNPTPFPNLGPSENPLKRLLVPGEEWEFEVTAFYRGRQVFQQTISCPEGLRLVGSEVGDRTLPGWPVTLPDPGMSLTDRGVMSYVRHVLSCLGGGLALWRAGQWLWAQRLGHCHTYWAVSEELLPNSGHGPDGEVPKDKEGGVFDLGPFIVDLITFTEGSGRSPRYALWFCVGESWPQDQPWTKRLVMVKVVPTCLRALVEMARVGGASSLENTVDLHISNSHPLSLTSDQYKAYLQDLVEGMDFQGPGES"}
{"Strand": "GGGCCTTGCATGTTTTTGACAGTGCTA", "fitted relative affinity [z-score]": -0.929}
{"Strand": "GTGTATATGGACGTCTGAAGGTGCTAG", "fitted relative affinity [z-score]": -0.226}
{"Strand": "TTTGCTTTCCTTCATGCACTGTGCTAG", "fitted relative affinity [z-score]": 3.02}
{"Strand": "TTAGATTTCACTATCGATTAGTGCTAG", "fitted relative affinity [z-score]": 2.51}
{"Strand": "TAAGGTTTCGGGTATCGGTTAGTGCTA", "fitted relative affinity [z-score]": 4.56}
{"Strand": "AGATGTGTCTTAAATAGGGCAGTGCTA", "fitted relative affinity [z-score]": 0.22}
{"Strand": "TTAGGTCACGGACTGGGTTAGTGCTAG", "fitted relative affinity [z-score]": -0.772}
{"Strand": "ATGTTTTTCATTTTTTTTCAGTGCTAG", "fitted relative affinity [z-score]": 1.75}
{"Strand": "GCCGAACTGAGTATCGAGACGTGCTAG", "fitted relative affinity [z-score]": 1.18}
{"Strand": "TTTTTTTTTTTTTTACTTCGGTGCTAG", "fitted relative affinity [z-score]": 1.65}
{"Strand": "TTAGAACTGAAACTGGATTAGTGCTAG", "fitted relative affinity [z-score]": 1.68}
{"Strand": "TTAGGTATCGGGTATCGGCTAGTGCTA", "fitted relative affinity [z-score]": 1.12}
{"Strand": "TTAGGTATCGGACCGGGTTAGTGCTAG", "fitted relative affinity [z-score]": 0.672}
{"Strand": "TTAGAACTGGGGTTTCGAGTAGTGCTA", "fitted relative affinity [z-score]": -0.13}
{"Strand": "TTAGAGTTCGGGACTGGATTAGTGCTA", "fitted relative affinity [z-score]": -0.554}
{"Strand": "AACCGCACAGAACTAAAACAGTGCTAG", "fitted relative affinity [z-score]": 0.563}
{"Strand": "TTAGGAATGGGTATCGGTTAGTGCTAG", "fitted relative affinity [z-score]": 0.696}
{"Strand": "TTGGATTTCAGTATCGATTAGTGCTAG", "fitted relative affinity [z-score]": 2.03}
{"Strand": "GACGGTTTCCTTACCCTGACGTGCTAG", "fitted relative affinity [z-score]": 6.16}
{"note": "A few entries again (sample 1):"}
{"Modification": "2'F-ANA at 1 2 5 6 10 11 13 15", "mean fluorescence intensity [a.u.]": 96.1}
{"Modification": "2'F-ANA at 1 2 3 4 6 7 8 12 14", "mean fluorescence intensity [a.u.]": 88}
{"Modification": "2'F-ANA at 1 8 10 11 12 13 14", "mean fluorescence intensity [a.u.]": 156}
{"Modification": "2'F-ANA at 2 5 6 8 9 11 12 14 15", "mean fluorescence intensity [a.u.]": 48.5}
{"Modification": "2'F-ANA at 1 2 4 5 6 9 15", "mean fluorescence intensity [a.u.]": 57.5}
{"Modification": "2'F-ANA at 3 5 8 10 11 12 13 15", "mean fluorescence intensity [a.u.]": 59.3}
{"Modification": "2'F-ANA at 1 3 4 5 8 10 11 12 15", "mean fluorescence intensity [a.u.]": 62.8}
{"Modification": "2'F-ANA at 2 3 4 5 9 11 12 14 15", "mean fluorescence intensity [a.u.]": 61.2}
{"Modification": "2'F-ANA at 1 4 5 7 11 15", "mean fluorescence intensity [a.u.]": 52.4}
{"Modification": "2'F-ANA at 1 2 3 5 9 11 13 14 15", "mean fluorescence intensity [a.u.]": 64.2}
